Measured values pooled from the literature.
Parts stem from different laboratories: compare values within a part only.
Chain of UniProt P42336 (whole entry, unmodified, looked up): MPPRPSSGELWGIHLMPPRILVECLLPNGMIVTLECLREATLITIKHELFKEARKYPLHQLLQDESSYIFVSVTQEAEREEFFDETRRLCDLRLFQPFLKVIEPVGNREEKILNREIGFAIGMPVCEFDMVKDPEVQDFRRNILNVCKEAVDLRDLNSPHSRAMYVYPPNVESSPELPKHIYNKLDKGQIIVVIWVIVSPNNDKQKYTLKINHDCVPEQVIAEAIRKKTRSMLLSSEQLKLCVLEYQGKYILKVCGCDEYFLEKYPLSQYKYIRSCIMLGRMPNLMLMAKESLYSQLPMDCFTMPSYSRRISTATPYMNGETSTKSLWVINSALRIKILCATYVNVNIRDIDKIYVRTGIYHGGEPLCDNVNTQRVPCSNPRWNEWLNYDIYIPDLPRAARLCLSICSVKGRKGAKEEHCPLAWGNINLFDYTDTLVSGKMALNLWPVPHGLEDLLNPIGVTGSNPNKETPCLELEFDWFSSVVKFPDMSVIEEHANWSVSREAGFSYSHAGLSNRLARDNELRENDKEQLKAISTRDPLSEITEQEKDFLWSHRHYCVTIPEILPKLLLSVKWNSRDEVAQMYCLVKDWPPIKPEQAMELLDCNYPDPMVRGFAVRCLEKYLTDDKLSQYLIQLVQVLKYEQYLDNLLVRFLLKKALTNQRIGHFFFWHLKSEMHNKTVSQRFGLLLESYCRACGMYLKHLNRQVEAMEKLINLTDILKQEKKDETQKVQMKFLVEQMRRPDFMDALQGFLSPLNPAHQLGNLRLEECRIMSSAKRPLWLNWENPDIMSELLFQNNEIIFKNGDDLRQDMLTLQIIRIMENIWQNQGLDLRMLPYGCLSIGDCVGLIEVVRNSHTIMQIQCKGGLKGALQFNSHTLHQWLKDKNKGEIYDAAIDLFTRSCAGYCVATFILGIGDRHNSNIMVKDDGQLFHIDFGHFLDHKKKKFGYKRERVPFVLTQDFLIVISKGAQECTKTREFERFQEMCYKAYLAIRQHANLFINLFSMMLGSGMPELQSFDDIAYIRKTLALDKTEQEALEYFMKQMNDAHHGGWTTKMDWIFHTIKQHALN
Chain of UniProt Q9Y2I7 (whole entry, looked up): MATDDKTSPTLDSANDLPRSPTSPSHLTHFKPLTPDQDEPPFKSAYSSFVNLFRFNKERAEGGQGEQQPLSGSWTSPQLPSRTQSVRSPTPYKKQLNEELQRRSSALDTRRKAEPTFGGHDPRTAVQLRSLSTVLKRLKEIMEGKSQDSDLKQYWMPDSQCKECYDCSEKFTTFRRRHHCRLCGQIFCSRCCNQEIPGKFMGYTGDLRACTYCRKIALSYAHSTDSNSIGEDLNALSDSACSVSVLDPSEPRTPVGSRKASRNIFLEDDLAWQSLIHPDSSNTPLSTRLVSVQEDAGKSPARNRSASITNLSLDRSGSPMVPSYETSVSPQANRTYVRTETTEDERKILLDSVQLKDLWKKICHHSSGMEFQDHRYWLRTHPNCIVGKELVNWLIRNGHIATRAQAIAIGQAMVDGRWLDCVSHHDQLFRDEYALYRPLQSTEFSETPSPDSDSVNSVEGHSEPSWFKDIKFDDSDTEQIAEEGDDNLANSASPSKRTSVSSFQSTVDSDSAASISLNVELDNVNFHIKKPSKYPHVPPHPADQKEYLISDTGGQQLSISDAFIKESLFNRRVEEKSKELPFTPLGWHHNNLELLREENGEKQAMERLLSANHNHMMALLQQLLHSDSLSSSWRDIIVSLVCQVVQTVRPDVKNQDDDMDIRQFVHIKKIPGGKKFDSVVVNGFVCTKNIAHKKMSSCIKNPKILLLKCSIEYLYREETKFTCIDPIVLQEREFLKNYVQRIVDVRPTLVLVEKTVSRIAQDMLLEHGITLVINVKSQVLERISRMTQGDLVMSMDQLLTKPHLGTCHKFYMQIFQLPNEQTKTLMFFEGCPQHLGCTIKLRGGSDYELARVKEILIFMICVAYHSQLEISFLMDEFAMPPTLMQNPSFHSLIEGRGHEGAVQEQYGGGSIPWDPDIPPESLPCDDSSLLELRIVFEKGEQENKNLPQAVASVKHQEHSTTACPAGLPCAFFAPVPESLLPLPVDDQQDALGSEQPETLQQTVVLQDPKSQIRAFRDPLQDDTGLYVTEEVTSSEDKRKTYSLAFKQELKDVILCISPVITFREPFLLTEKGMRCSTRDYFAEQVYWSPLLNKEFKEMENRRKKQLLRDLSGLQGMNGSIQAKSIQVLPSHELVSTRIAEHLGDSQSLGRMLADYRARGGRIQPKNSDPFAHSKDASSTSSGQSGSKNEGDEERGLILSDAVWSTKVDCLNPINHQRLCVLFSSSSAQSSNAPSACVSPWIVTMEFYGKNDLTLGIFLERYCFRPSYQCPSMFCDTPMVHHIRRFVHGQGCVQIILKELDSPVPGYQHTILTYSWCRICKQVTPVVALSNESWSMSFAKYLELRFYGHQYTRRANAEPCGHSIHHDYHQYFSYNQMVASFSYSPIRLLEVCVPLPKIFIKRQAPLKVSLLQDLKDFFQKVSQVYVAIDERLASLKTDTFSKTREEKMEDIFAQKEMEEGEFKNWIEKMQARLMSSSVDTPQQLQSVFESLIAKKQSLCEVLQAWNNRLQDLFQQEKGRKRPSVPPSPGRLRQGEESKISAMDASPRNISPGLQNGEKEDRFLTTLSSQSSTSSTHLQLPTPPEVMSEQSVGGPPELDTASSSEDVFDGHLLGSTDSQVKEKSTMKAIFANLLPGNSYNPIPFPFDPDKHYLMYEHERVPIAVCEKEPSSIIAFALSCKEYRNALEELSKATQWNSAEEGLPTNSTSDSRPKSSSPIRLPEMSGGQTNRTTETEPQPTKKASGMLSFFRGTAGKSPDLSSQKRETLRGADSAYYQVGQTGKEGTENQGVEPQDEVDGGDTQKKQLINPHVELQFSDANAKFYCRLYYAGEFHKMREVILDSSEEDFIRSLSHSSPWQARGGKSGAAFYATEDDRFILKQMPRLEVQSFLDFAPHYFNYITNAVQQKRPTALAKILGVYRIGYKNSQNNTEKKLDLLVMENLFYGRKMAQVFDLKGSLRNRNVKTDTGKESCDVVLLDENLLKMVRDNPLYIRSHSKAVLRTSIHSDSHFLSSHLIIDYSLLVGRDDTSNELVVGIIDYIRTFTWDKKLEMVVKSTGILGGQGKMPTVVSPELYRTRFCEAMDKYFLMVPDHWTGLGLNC
Chain of UniProt P54756 (whole entry, looked up): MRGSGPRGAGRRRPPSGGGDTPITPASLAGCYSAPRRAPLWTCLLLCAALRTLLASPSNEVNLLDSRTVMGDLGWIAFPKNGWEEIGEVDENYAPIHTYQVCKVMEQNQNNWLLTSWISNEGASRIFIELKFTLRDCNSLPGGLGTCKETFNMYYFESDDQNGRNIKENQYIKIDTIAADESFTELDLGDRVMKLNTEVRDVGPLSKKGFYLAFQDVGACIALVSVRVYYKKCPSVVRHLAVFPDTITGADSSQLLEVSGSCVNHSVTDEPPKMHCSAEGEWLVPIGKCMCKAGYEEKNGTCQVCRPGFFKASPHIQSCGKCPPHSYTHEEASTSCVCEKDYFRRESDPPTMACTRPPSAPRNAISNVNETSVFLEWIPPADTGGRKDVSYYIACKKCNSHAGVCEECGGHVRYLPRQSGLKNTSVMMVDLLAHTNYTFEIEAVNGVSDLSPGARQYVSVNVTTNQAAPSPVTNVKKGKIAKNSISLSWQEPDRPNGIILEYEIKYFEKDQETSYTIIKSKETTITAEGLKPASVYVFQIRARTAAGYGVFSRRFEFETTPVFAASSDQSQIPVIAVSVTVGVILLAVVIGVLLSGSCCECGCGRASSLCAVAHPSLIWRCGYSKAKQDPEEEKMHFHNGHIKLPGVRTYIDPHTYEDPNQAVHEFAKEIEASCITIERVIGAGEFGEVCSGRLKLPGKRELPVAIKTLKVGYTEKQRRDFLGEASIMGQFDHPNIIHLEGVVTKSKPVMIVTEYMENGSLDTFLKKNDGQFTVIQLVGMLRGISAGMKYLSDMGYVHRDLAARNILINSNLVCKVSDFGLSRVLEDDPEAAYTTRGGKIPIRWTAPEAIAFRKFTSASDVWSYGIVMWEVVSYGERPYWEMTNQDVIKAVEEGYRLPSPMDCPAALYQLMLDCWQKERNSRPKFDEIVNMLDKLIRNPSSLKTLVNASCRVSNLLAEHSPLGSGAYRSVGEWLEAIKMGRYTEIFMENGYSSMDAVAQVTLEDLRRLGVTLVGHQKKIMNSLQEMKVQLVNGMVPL
Chain of UniProt Q8NG66 (whole entry, looked up): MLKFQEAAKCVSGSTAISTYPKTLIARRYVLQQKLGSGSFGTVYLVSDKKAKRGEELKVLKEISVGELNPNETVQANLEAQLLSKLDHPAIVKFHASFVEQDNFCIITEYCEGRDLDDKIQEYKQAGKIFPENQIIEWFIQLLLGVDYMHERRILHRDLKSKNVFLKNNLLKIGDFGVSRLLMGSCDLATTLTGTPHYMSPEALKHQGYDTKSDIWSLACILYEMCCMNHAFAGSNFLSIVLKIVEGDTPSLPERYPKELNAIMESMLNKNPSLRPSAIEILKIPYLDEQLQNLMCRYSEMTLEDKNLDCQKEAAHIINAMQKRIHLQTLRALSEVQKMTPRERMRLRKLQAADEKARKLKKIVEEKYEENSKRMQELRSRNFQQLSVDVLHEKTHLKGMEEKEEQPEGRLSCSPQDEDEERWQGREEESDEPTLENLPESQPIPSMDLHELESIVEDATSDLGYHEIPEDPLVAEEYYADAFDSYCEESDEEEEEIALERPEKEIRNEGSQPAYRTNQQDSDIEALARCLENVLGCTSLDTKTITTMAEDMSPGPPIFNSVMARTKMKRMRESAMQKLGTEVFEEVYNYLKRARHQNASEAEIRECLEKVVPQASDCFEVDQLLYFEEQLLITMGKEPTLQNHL

Series 1
Target: Prothrombin, mature alpha-thrombin (F2, Homo sapiens, UniProt P00734)
Method: aptamer microarray, sandwich
Form: DNA with 2'F-ANA
Matrix: in vitro
Concentration: 200 nM
Notes: whole 15-mer aptamer, many near background
With: Cy3 exosite-II aptamer, 400 nM
Reading: higher = stronger binding
Oligonucleotide: GGTTGGTGTGGTTGG
Modification | mean fluorescence intensity
2'F-ANA at 6 7 9 10 12 13 14 15 | 110 a.u.
2'F-ANA at 1 2 5 6 7 8 11 13 | 53.5 a.u.
2'F-ANA at 1 3 4 5 9 10 11 14 | 44.7 a.u.
2'F-ANA at 2 3 4 6 7 10 11 | 206 a.u.
2'F-ANA at 1 2 3 4 5 6 9 13 14 15 | 46.3 a.u.
2'F-ANA at 2 8 12 13 14 | 207 a.u.
2'F-ANA at 1 6 9 14 15 | 54 a.u.
2'F-ANA at 4 7 8 9 11 12 13 14 | 102 a.u.

Series 2
Target: Phosphate system positive regulatory protein PHO4, full length, GST-tagged (PHO4, Saccharomyces cerevisiae, UniProt P07270, residues 1-312)
Method: competition protein-binding microarray
Form: double-stranded DNA, one strand shown
Matrix: in vitro
Concentration: 2 µM
Notes: whole 60-bp probe, lowest competitor level
With: Cbf1 competitor, 0.05 µM
Reading: higher = stronger binding
Shared flanks, not repeated: … GTCTTGATTCGCTTGACGCTGCTG
Residues (chain): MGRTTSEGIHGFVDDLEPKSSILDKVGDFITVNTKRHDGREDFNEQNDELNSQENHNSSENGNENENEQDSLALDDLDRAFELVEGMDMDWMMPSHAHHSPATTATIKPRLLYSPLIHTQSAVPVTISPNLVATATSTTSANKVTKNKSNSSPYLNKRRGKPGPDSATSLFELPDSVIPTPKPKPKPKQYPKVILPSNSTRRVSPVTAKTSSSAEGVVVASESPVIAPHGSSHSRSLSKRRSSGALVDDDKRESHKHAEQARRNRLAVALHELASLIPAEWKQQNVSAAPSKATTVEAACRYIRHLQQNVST
Oligonucleotide | fluorescence intensity [a.u.]
TGCGCAACAACTTAACACGTGTTTTTATGTCTAGAA | 18000
AGGCACCATTCATTTGTCGTGGCCGCAATGTGTCCC | 5580
CATACCCAACCTTGGATTGTGGGTGAAGATATTTGT | 4910
CGGGGTTAAGTTTTTCACGTGATCTGCTTGCAGCAG | 10800
CGGGGTTAAGTTTGGCTCGTGGGTGGCTTGCAGCAG | 10900
CCATTTGGATATAAGCTTGTGACAGTGACAGTAGAG | 6070
GCCAACAAGTGAACACACGTGAAAATGTTTTCAGTA | 12100
CAATTTGTGGTCTTCGTCGTGCTTTGTGGGTTTAGC | 7190

Series 3
SMILES: COc1ccc2cc(OCC3(C(=O)O)CN(C(=O)c4ccc(F)cc4)C3)ccc2c1
Read-out: cell-free assay
Method: competition with immobilised ligand
Concentration: 1 µM
target | remaining binding [%]
Ephrin type-A receptor 5 (EPHA5, Homo sapiens, UniProt P54756) | 78
Mast/stem cell growth factor receptor Kit (KIT, Homo sapiens, UniProt P10721) | 100
Serine/threonine-protein kinase Nek11 (NEK11, Homo sapiens, UniProt Q8NG66) | 93
1-phosphatidylinositol 3-phosphate 5-kinase (PIKFYVE, Homo sapiens, UniProt Q9Y2I7) | 91
Phosphatidylinositol 4,5-bisphosphate 3-kinase catalytic subunit alpha isoform (PIK3CA, Homo sapiens, UniProt P42336, H1047Y) | 100

Single results of other studies
SMILES | matrix | endpoint | value
CCOC(=O)[C@@H]1CSCC(=O)N[C@@H](CC)C(=O)N(C)[C@@H](C)C(=O)N[C@@H](CC(C)C)C(=O)N2CCC[C@H]2C(=O)N(CC)CC(=O)N[C@H](CC(C)C)C(=O)N(C)[C@@H](C)C(=O)N[C@@H](CC(C)C)C(=O)N1C | hydrocarbon/water | logD | 0.0163

Excerpt of the above (series 3):
target | remaining binding [%]
Ephrin type-A receptor 5 (EPHA5, Homo sapiens, UniProt P54756) | 78
Mast/stem cell growth factor receptor Kit (KIT, Homo sapiens, UniProt P10721) | 100
Serine/threonine-protein kinase Nek11 (NEK11, Homo sapiens, UniProt Q8NG66) | 93
